Results collected from several papers.
Every numbered part comes from another study and shows a few of its results, in no order.

Sample 1 — technique: protein binding microarray; molecule type: double-stranded DNA, one strand shown; medium: in vitro; tested at: not given; baseline: not given; direction: higher = stronger binding
Target: Histone acetyltransferase KAT6A, winged helix 1, GST fusion (KAT6A, Homo sapiens, UniProt Q92794, residues 1-85)
Setting: 8-mer, flanks averaged, mean of 2 arrays, mostly near background
Target sequence (chain): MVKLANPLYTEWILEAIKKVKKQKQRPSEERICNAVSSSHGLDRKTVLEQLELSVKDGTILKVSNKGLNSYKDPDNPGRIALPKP
Oligonucleotide | E-score
GGATCTAC | -0.205
GTAACAAC | -0.031
CCCCGAGA | -0.0347
AGGAACGC | 0.211
ATTGAGGC | -0.0775
CAGTGAAG | -0.177
CGCTACAG | 0.069

Sample 2 — technique: protein-binding microarray; molecule type: double-stranded DNA, one strand shown; medium: in vitro; tested at: 0.8 µM; setting: whole 60-bp probe, no competitor; direction: higher = stronger binding
Target: Centromere-binding protein 1, full length, N-terminal tag (CBF1, Saccharomyces cerevisiae, UniProt P17106, residues 1-351)
Chain of UniProt P17106 (whole entry, looked up): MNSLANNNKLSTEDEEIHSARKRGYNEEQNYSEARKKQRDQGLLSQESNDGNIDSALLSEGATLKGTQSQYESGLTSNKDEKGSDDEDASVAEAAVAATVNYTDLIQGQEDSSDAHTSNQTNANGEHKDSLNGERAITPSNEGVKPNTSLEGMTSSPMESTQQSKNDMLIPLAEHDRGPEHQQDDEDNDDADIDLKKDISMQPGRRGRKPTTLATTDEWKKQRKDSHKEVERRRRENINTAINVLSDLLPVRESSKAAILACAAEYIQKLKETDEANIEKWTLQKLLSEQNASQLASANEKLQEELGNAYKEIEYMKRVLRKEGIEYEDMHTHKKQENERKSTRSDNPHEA
Oligonucleotide | fluorescence intensity [a.u.]
GAAACTCCATCCTCAATCGTGATTGTGCGTGCGTAGGTCTTGATTCGCTTGACGCTGCTG | 508
GAACTTGATTAACGTGATTATACTTTTTAAACCTAGGTCTTGATTCGCTTGACGCTGCTG | 1110
CTACAATCGAGAGACTTCGTGATTTGTAAAAGTTTCGTCTTGATTCGCTTGACGCTGCTG | 569
GAATTTCTCACGCTGATGATGATGACAATTTTATAGGTCTTGATTCGCTTGACGCTGCTG | 581

Sample 3 — technique: RNA Bind-n-Seq; molecule type: RNA; medium: in vitro; tested at: not given; baseline: input RNA pool; direction: higher = stronger binding
Target: RING finger protein unkempt homolog, zinc fingers 1-6, GST-SBP tag (UNK, Homo sapiens, UniProt Q9C0B0, residues 30-357)
Chain of UniProt Q9C0B0 (30-357, looked up): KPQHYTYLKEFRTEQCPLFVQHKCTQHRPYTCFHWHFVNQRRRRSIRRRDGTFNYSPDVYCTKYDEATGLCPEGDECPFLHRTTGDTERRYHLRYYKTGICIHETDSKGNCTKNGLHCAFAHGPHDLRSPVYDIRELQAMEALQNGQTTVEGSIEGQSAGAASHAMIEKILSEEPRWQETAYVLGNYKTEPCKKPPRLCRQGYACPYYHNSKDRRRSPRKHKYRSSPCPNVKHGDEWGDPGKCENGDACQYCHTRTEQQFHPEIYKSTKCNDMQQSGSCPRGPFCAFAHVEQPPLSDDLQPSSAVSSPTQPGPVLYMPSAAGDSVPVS
Setting: RNA with constant flanks, human and mouse sites, ends assumed
Oligonucleotide | bound/input enrichment
GGGAGUUCUACAGUCCGACGAUCGACUUCACUGUAUUUGAAAGGAUAUCUCUUGCCUGGAGCCCAAUUACAUCUUUAAUGUGGGCUUGUGGUCGCCAUUUGUAUGAGUGUGCAGAAGAAGAAAGUGAUAACUCCUUAGAAAAACAACAGAGGAUUGAGCAUCA | 0.352 ratio
GGGAGUUCUACAGUCCGACGAUCAACAAAUACUGGCCCCUCUUUGUUCUAUUUUUUUACAUCCUUUCACCUAUUCCAUACUGCAUAGCAAGAAGAUUAGUGGAUGAUACAGAUGCUAUGAGUAACGCUUGUAAGGAACUUGCCCAACAGAGGAUUGAGCAUCA | 0.426 ratio
GGGAGUUCUACAGUCCGACGAUCAAAGAACAGGUUUUAGAACCUAUGCUAAAUGGAACAGAUAAAACACCAGCAUUAAUUUCUGAUUAUAAAGAAUAUCAUACUGACACAACUGUGAAAUUUGUGGUGAAAAUGACUGAAGAGCAACAGAGGAUUGAGCAUCA | 0.219 ratio

Further values, each from its own experiment
Molecule | target | test | system | setting | scale | endpoint | value
PhoQ, residues 284 288 289 292 302 303 WVSSAF | PhoP, residues 12 14 15 18 19 NQFFI (Escherichia coli, UniProt P23836) | Sort-seq, refers to: YFP reporter | E. coli | PhoQ-PhoP variant library, added: 10 µM Mg2+ | baseline: high Mg2+ state, higher = stronger signaling | fold induction | 15.7

Excerpt of the above (sample 1):
Oligonucleotide | E-score
GTAACAAC | -0.031
CCCCGAGA | -0.0347
